# Published values of several laboratories.
# Numbered parts are unrelated; each lists some results of a single study. Positions count from the first letter of the parent shown.

# Study 1 — target: CDC34 UBC core domain (UniProt P49427); method: yeast two-hybrid; matrix: yeast; notes: mostly zero background; baseline: not given; direction: higher = stronger interaction
# UniProt P49427, sequence (whole entry, looked up): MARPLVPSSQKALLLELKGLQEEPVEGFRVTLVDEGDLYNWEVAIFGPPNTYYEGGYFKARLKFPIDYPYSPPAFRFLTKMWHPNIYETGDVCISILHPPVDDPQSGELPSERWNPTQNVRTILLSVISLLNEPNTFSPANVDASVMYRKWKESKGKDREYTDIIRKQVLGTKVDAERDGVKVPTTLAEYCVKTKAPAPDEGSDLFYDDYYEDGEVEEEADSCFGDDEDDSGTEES
# B1: TRIM22 RING domain (UniProt Q8IYM9); chain VKVDIEKEVTCPICLELLTEPLSLDCGHSFCQACITAKIKESVIISRGESSCPVCQTRFQPGNLRP
# B2: TRIM37 RING domain (UniProt O94972); chain SVESIAEVFRCFICMEKLRDARLCPHCSKLCCFSCIRRWLTEQRAQCPHCRAPLQLRELVN
# B3: RNF122 RING domain (UniProt Q9H9V4); chain AKKLQLYGQTCAVCLEDFKGKDELGVLPCQHAFHRKCLVKWLEVRCVCPMCNKPIASPSEAT
# B4: ANAPC11 RING domain (UniProt Q9NYG5); chain GICRMAFNGCCPDCKVPGDDCPLVWGQCSHCFHMHCILKWLHAQQVQQHCPMCRQEWKFKE
# B5: RNF183 RING domain (UniProt Q96D59); chain EQQGRELEAECPVCWNPFNNTFHTPKMLDCCHSFCVECLAHLSLVTPARRRLLCPLCRQPTVLASGQP
# B6: TRIM54 RING domain (UniProt Q9BYV2); chain SMDNLEKQLICPICLEMFSKPVVILPCQHNLCRKCANDVFQASNPLWQSRGSTTVSSGGRFRCPSCRHEVVLDRHGV
# B7: TRIM26 RING domain (UniProt Q12899); chain PLRSLEEEVTCSICLDYLRDPVTIDCGHVFCRSCTTDVRPISGSRPVCPLCKKPFKKENIRP
# B8: RNF166 RING domain (UniProt Q96A37); chain GDSGLEAQYTCPICLEVYHRPVAIGSCGHTFCGECLQPCLQVPSPLCPLCRLPFDPKKVDK
Molecule,lacZ reporter activity
B1 (TRIM22 RING domain),0
B2 (TRIM37 RING domain),0
B3 (RNF122 RING domain),0
B4 (ANAPC11 RING domain),0
B5 (RNF183 RING domain),0
YCEMGSTFQLCKICAENDKDVKIEPCGHLMCTSCLTAWQESDGQGCPFCRCEIKGTEPII (CBLB RING domain (UniProt Q13191)),0
B6 (TRIM54 RING domain),0
B7 (TRIM26 RING domain),0
FVKTVEDKYKCEKCHLVLCSPKQTECGHRFCESCMAALLSSSSPKCTACQESIVKDKVF (TRAF3 RING domain (UniProt Q13114)),0
B8 (RNF166 RING domain),0

# Study 2 — method: DHFR PCA, deep sequencing; matrix: yeast; added: (+)-ABA 17 µM; baseline: wild-type fitted maximum; direction: higher = stronger binding
# Target: ABI1, truncated, D143A, DHFR fusion (Arabidopsis thaliana)
# Notes: methotrexate growth selection, single substitutions
# Parent: PYL1, truncated, DHFR fusion (Arabidopsis thaliana); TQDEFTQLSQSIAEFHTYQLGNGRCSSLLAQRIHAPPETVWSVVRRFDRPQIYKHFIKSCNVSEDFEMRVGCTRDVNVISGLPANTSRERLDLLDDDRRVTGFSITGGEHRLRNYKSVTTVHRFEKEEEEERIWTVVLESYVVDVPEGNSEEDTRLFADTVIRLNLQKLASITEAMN
Change,relative binding score [%]
V145S,15.5
E4W,79.5
R74K,-4.56
S104P,-7.49
T73E,90
G21D,85
S171G,80.2
E139K,16
F103D,-15.4
E38W,50
L156Q,69.3
D3T,82.8
R123A,95.2
S11W,79.5
F157M,57
V44M,31.8

# Study 3 — method: universal PBM; form: double-stranded DNA, one strand shown; matrix: in vitro; concentration: not given; direction: higher = stronger binding
# Target: Sal-like protein 4, full length isoform B (SALL4, Homo sapiens, UniProt Q9UJQ4-2, residues 1-616)
# Notes: 8-mer, flanks averaged, mean of replicates
# Construct (chain): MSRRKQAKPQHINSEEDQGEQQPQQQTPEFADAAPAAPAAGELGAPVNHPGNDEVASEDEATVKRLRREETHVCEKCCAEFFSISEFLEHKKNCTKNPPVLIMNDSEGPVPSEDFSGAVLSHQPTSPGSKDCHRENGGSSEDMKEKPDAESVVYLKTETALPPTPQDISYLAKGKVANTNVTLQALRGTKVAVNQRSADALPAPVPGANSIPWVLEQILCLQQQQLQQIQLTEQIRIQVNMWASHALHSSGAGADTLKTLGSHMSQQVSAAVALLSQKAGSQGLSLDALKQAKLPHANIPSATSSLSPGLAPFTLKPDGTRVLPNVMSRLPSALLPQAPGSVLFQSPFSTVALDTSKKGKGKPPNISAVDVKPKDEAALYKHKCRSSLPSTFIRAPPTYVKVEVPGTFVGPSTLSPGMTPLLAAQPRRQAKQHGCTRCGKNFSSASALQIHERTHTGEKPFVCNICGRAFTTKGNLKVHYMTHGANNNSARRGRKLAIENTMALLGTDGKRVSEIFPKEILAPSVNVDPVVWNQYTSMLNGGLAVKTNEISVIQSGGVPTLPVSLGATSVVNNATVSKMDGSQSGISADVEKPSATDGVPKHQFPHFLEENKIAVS
Strand,E-score
CGTGTTCC,-0.217
AGAGCGAC,-0.171
CCAGTACA,0.13
AGCCGCTG,-0.26
CGTCCAAG,-0.171
AGTTTCCG,-0.0958
AGGGGCGC,-0.308
AGTGGATA,0.0284
GCGTCTAA,0.0519
AAATACGC,0.0993
CCAACGTC,-0.212
AGAGGCGA,-0.156
CGTTTAAC,0.177
TATGGGCA,0.0642
GGCGCCAC,-0.383
ACGATTGC,0.0764
AGTTGCCA,-0.23
ACTCCCAG,-0.191
CCTCAGAG,-0.355

# Study 4 — target: CCNA2, cyclin fold, Cln2 fusion (human); method: yeast growth competition, sequencing; matrix: yeast; notes: strong parent motif; baseline: not given; direction: higher = stronger binding
# Parent: INSM1 docking peptide (human); PKAIRKLHFEDEV; partner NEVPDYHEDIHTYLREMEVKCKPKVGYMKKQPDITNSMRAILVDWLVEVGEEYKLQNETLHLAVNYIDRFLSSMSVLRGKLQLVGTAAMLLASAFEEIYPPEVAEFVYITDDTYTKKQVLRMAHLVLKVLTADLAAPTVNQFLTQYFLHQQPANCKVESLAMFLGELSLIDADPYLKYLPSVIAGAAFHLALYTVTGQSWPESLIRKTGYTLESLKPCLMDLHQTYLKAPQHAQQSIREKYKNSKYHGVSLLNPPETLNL
Change,normalised enrichment score
K6V,3.56
H8D,5.73
L7Y,0.263
A3E,0.575
F9K,0.0792
F9T,0.00509
I4L,6.04
E12N,4.87
K2A,4.26
R5H,0.411
A3Y,3.31
L7V,0.855
E10F,5.17
A3R,1.64
D11M,4.57
F9H,0.533
E10S,5.1
H8L,5.52
K2V,3.83
D11E,5.25
R5N,0.135
K2T,4.93
K2W,3.6

# For quick reference, copied from above (study 1):
Molecule,lacZ reporter activity
B2 (TRIM37 RING domain),0
B1 (TRIM22 RING domain),0
B4 (ANAPC11 RING domain),0
B6 (TRIM54 RING domain),0
B8 (RNF166 RING domain),0
B3 (RNF122 RING domain),0
B5 (RNF183 RING domain),0
FVKTVEDKYKCEKCHLVLCSPKQTECGHRFCESCMAALLSSSSPKCTACQESIVKDKVF (TRAF3 RING domain (UniProt Q13114)),0
B7 (TRIM26 RING domain),0
YCEMGSTFQLCKICAENDKDVKIEPCGHLMCTSCLTAWQESDGQGCPFCRCEIKGTEPII (CBLB RING domain (UniProt Q13191)),0
